# Assay results collected from several papers.
# Every numbered part comes from another study and shows a few of its results, in no order. Values joined by “and” are separate records of one study, mostly repeats; a detail may differ.
# UniProt O75582, sequence (whole entry, looked up): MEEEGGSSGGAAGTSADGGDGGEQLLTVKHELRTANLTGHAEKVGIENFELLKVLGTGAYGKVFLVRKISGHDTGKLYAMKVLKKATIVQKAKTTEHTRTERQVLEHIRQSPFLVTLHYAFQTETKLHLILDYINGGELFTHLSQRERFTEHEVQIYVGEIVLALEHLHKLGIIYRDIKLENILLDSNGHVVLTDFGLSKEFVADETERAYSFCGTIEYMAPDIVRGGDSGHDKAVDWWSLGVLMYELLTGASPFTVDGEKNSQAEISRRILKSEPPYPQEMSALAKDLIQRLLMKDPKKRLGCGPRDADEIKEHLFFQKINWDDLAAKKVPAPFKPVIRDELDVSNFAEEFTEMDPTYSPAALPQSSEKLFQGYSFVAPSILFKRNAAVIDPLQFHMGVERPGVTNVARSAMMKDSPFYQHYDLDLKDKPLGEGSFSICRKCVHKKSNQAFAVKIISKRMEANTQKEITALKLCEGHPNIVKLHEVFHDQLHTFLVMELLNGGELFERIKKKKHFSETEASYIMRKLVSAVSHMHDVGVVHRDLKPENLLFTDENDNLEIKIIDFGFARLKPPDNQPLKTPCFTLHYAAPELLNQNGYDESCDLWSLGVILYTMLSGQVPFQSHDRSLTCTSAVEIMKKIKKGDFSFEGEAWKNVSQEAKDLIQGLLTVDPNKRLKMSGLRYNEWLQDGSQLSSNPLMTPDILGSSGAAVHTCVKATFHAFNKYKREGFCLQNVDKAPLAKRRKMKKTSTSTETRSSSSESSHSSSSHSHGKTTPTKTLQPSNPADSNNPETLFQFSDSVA
# UniProt P31152, sequence (whole entry, looked up): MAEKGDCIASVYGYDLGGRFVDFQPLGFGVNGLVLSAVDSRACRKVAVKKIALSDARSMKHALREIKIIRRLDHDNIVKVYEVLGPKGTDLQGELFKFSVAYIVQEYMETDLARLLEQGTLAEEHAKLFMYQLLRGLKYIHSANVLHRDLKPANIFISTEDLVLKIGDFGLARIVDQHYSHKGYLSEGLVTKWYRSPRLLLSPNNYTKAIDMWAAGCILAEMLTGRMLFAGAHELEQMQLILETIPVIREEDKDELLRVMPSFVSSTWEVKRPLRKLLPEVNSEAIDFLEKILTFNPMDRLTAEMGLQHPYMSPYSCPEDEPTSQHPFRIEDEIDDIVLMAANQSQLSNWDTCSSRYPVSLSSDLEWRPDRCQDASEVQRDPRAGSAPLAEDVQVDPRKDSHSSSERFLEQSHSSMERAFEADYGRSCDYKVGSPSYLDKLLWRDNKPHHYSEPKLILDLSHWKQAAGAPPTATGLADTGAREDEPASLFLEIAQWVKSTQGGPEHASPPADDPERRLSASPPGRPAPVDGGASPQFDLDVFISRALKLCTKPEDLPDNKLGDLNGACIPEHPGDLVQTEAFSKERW
# UniProt Q12866, sequence (whole entry, looked up): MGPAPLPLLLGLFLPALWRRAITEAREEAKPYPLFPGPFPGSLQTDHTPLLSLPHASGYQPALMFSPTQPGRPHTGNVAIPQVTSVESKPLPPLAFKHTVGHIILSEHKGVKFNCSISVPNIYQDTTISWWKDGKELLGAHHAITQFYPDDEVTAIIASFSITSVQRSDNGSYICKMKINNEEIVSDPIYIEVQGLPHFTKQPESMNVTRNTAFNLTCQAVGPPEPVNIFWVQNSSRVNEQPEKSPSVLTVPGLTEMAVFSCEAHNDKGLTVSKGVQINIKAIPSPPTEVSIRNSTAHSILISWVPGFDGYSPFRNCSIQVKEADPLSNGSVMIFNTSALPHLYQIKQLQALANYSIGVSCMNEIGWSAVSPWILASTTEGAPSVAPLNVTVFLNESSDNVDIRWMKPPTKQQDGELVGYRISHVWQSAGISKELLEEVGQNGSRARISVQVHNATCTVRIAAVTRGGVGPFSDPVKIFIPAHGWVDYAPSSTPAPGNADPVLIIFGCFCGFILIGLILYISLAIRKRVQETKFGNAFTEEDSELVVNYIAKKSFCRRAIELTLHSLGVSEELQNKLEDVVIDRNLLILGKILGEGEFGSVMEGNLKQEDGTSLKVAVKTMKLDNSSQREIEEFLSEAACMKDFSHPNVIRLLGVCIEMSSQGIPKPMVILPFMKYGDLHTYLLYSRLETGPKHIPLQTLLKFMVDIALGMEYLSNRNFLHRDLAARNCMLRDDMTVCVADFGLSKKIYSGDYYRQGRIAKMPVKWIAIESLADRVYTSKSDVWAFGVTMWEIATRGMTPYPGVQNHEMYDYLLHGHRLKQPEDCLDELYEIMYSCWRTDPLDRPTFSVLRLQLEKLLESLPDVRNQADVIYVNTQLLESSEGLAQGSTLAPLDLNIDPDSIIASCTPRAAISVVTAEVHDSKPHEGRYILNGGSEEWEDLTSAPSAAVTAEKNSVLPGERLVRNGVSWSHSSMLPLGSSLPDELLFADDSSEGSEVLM

# Series 1
# Host: mouse
# Sample: microsomes or S9
# Tested at: 2 µM
# Time: 0.5 h
Compound,remaining compound [%]
OC1CCOc2c(NCCc3ccccc3F)cccc21 (stereo not drawn),6
CC(C)CCCC(C)NC(=O)C1CCN(c2nc(Cl)nc3[nH]cnc23)CC1 (stereo not drawn),3.25
COc1cc(/C=C/C(=O)O)cc(S(=O)(=O)Nc2cccc(-c3n[nH]c4c3CCC4)c2)c1OC,69.5
CC(=O)OC(CF)c1cc(F)ccc1S(N)(=O)=O (stereo not drawn),8.71
COc1cc2c(Nc3ccc(Br)c(C)c3)ncnc2cc1OCC1CN(C)CCO1 (stereo not drawn),37.8

# Series 2
# SMILES: CN(c1ccnc(CNc2nc(Nc3ccc4c(c3)CC(=O)N4)ncc2C(F)(F)F)n1)S(C)(=O)=O
# Observed: cell-free assay
# Technique: competition with immobilised ligand
# Tested at: 1 µM
target,remaining binding [%]
"Serine/threonine-protein kinase Chk1 (CHEK1, Homo sapiens, UniProt O14757)",57
"Tyrosine-protein kinase Mer (MERTK, Homo sapiens, UniProt Q12866)",21
"Death-associated protein kinase 1 (DAPK1, Homo sapiens, UniProt P53355)",15
"Serine/threonine-protein kinase B-raf (BRAF, Homo sapiens, UniProt P15056, V600E)",68
"Casein kinase I isoform gamma-2 (CSNK1G2, Homo sapiens, UniProt P78368)",100
"Tyrosine-protein kinase ABL1, non-phosphorylated (ABL1, Homo sapiens, UniProt P00519, T315I)",36
"Cyclin-dependent kinase 4 (CDK4, Homo sapiens, UniProt P11802)",100
"Ephrin type-B receptor 3 (EPHB3, Homo sapiens, UniProt P54753)",95
"Phosphatidylinositol 4-kinase beta (PI4KB, Homo sapiens, UniProt Q9UBF8)",76
"Beta-adrenergic receptor kinase 1 (GRK2, Homo sapiens, UniProt P25098)",31
"Serine/threonine-protein kinase MRCK alpha (CDC42BPA, Homo sapiens, UniProt Q5VT25)",80
"Receptor-interacting serine/threonine-protein kinase 2 (RIPK2, Homo sapiens, UniProt O43353)",82
"Ribosomal protein S6 kinase alpha-5, C-terminal kinase domain (RPS6KA5, Homo sapiens, UniProt O75582)",78
"Mitogen-activated protein kinase 6 (MAPK6, Homo sapiens, UniProt Q16659)",66
"Casein kinase II subunit alpha (CSNK2A1, Homo sapiens, UniProt P68400)",26
"Angiopoietin-1 receptor (TEK, Homo sapiens, UniProt Q02763)",50
"Activin receptor type-2B (ACVR2B, Homo sapiens, UniProt Q13705)",73
"Mitogen-activated protein kinase 4 (MAPK4, Homo sapiens, UniProt P31152)",57

# Series 3
# Target: DNA polymerase theta, ATPase domain (POLQ, Homo sapiens, UniProt O75417)
# UniProt O75417, sequence (whole entry, unmodified, looked up): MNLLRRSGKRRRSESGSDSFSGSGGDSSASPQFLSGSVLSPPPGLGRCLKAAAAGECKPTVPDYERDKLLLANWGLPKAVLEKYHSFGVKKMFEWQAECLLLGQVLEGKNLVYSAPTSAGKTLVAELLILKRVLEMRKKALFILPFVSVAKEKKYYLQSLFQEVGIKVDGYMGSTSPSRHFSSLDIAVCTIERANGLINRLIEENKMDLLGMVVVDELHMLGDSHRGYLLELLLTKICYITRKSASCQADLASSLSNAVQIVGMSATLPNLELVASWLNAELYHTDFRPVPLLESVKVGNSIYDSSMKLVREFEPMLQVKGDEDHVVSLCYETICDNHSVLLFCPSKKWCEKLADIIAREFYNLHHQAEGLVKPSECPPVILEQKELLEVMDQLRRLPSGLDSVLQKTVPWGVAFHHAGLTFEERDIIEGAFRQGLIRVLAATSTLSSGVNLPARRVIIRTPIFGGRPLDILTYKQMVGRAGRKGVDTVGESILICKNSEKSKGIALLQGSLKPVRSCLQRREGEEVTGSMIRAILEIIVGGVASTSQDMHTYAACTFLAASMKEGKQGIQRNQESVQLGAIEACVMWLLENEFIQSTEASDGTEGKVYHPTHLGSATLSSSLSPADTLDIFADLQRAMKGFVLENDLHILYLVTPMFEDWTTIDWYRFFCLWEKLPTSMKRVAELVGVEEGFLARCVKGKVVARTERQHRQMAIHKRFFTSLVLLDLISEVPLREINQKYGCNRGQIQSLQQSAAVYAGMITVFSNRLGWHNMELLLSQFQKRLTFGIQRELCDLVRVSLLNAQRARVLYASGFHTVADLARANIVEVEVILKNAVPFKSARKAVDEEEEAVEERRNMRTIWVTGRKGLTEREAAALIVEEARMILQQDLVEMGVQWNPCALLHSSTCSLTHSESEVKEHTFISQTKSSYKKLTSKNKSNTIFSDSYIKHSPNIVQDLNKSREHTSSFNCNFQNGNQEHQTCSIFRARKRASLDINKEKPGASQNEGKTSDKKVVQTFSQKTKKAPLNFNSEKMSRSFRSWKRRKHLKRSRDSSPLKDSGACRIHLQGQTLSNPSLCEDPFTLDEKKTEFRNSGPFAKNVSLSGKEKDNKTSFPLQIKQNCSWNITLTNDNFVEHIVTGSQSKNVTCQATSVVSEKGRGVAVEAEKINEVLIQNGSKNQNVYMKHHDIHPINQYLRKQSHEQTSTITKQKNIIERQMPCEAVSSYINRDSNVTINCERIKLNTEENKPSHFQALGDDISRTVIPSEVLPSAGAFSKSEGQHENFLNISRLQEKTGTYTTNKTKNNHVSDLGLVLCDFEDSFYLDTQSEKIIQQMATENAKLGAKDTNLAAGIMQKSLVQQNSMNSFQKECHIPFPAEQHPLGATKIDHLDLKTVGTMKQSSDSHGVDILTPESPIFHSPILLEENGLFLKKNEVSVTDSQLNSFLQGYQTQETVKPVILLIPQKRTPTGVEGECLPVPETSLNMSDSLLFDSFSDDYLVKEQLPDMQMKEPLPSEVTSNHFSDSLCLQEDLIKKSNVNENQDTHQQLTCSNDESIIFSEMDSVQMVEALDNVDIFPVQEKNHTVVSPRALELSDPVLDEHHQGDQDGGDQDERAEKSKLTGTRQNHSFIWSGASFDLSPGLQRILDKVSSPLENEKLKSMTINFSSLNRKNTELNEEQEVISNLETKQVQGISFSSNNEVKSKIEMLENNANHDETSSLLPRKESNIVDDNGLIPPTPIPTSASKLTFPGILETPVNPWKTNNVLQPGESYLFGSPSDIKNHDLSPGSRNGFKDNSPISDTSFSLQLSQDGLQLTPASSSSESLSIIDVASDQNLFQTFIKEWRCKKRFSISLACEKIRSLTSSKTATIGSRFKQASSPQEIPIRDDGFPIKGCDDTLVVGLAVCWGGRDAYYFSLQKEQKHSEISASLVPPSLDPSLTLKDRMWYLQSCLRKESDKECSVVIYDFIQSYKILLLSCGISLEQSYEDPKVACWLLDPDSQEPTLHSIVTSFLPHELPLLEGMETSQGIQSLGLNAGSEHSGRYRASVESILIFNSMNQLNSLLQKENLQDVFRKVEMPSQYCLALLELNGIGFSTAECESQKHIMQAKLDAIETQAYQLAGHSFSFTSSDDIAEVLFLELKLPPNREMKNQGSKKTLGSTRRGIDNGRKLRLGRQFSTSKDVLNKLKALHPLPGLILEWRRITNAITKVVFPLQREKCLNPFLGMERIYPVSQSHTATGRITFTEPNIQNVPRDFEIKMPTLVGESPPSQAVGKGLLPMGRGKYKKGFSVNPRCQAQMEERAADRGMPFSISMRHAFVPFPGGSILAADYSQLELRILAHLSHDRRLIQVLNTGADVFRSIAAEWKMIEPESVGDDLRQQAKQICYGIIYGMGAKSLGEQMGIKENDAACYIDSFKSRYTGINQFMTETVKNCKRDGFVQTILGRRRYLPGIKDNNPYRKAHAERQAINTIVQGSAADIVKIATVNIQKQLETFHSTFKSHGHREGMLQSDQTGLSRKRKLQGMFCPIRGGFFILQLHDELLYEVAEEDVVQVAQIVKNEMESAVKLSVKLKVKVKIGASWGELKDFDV
# Observed: enzyme activity
# Action: inhibitor
# Tested at: 77 µM
# Relative to: untreated
SMILES,remaining activity [%]
Cc1cccc(C)c1NC(=O)CN1CCN(CCCC(c2ccc(F)cc2)c2ccc(F)cc2)CC1,94.7
CC1(C)S[C@@H]2[C@H](NC(=O)C(C(=O)O)c3ccccc3)C(=O)N2[C@H]1C(=O)O (stereo partly drawn),99.8
CN1CCN(C2Cc3ccccc3Sc3ccc(Cl)cc32)CC1 (stereo not drawn),103
CC(CNC1CCCCC1)OC(=O)c1ccccc1 (stereo not drawn),102
CN(C)C(=O)COC(=O)Cc1ccc(OC(=O)c2ccc(NC(=N)N)cc2)cc1,98.3
CC(=O)O[C@@]12CO[C@@H]1C[C@H](O)[C@@]1(C)C(=O)[C@H](O)C3=C(C)[C@@H](OC(=O)[C@H](O)[C@@H](NC(=O)OC(C)(C)C)c4ccccc4)C[C@@](O)([C@@H](OC(=O)c4ccccc4)[C@H]21)C3(C)C,90.6

# Series 4
# Cell line: mouse MPNST tumor cells
# Technique: high-content nuclear imaging
# Measured: cell number
# Tested at: 10 µM
# Time: 12 h
# Setting: mean of 2 replicates
# Relative to: plate mean
# Reading: higher = more cells
SMILES,nuclei count
CC[C@@H]1Cn2c(c3nc(-c4cc(Cl)cc(Cl)c4Cl)nc-3n(C)c2=O)N1,-0.591 z-score
CN1CC[C@@H](NC(=O)Nc2ccc(C#N)cc2)C[C@@H]1c1nc2ccccc2[nH]1,3.57 z-score
O=C(Oc1nsnc1N1CCCCC1)N1CCOCC1,1.64 z-score
COCC1=C(C(=O)OC(C)OC(=O)OC(C)C)N2C(=O)[C@@H](NC(=O)/C(=N\OC)c3csc(N)n3)[C@H]2SC1 (stereo partly drawn),0.951 z-score
Nc1nc(F)nc2c1ncn2[C@@H]1O[C@H](CO)[C@@H](O)[C@@H]1O,0.839 z-score and 0.547 z-score

# Series 5
# Cell line: A-375
# Tested at: 100 µM
# Time: 36 h
Structure (SMILES),viability [%]
CCCCC(C)(O)C/C=C/[C@H]1[C@H](O)CC(=O)[C@@H]1CCCCCCC(=O)OC (mixture of isomers),106
C[C@H]1CC[C@@]2(O)C(C)(C)[C@@H]3CC[C@@]2(C)[C@H]1C3,0.709
Cc1ccc(C(=O)c2ccc(CC(=O)O)n2C)cc1,98.5
NCCc1c[nH]cn1,119
CC(C)(F)C[C@H](N[C@@H](c1ccc(-c2ccc(S(C)(=O)=O)cc2)cc1)C(F)(F)F)C(=O)NC1(C#N)CC1,92.8
C[C@@H](Oc1cc(-c2cnn(C3CCNCC3)c2)cnc1N)c1c(Cl)ccc(F)c1Cl,-1.04
COc1ccc2c(c1)c(CC(=O)OCC(=O)O)c(C)n2C(=O)c1ccc(Cl)cc1,96.5

# Mixed results
Structure (SMILES),test,system,conditions,endpoint,result
CC(C)n1cnc(-c2ccc(F)cc2)c1-c1ncc(C(=O)Nc2ccc(N3CCN(C)CC3)cc2)[nH]1,phase 2a trial,idiopathic pulmonary fibrosis patients,"60 mg once daily, adverse event grade 1",patients with first-degree AV block,1%

# Some of these lines once more (series 5):
Structure (SMILES),viability [%]
CCCCC(C)(O)C/C=C/[C@H]1[C@H](O)CC(=O)[C@@H]1CCCCCCC(=O)OC (mixture of isomers),106
NCCc1c[nH]cn1,119
Cc1ccc(C(=O)c2ccc(CC(=O)O)n2C)cc1,98.5
COc1ccc2c(c1)c(CC(=O)OCC(=O)O)c(C)n2C(=O)c1ccc(Cl)cc1,96.5
